Published values of several laboratories.
Numbers after ± are the reported error.
CYP2A6: Cytochrome P450 2A6 (CYP2A6, Homo sapiens, UniProt P11509)
UniProt P11509, sequence (whole entry, looked up): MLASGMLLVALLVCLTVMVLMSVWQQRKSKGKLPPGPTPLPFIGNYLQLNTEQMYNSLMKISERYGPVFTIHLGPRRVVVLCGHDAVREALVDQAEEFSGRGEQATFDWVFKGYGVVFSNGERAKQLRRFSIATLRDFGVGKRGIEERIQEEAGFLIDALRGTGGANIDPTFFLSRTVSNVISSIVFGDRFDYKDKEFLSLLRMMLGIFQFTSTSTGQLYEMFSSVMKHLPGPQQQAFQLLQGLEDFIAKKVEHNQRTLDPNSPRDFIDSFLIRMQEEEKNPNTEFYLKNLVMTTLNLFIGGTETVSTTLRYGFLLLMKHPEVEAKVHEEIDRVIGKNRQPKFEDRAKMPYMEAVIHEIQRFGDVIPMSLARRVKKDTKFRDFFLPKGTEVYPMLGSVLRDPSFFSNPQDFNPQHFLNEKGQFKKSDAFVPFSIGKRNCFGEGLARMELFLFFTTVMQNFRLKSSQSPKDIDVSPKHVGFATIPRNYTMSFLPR
NR1I2: Nuclear receptor subfamily 1 group I member 2 (NR1I2, Homo sapiens, UniProt O75469)
UniProt O75469, sequence (whole entry, looked up): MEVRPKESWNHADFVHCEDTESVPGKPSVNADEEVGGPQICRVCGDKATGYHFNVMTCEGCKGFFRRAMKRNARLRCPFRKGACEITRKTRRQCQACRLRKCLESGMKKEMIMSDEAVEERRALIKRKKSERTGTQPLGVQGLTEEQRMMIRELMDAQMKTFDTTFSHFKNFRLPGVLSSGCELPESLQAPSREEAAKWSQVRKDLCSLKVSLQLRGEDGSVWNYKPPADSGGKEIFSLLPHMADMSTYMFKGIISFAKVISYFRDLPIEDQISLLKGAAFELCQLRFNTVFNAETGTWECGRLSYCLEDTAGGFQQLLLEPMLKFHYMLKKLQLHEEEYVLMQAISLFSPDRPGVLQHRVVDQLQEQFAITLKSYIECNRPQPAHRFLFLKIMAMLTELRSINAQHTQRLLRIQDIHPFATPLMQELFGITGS
UniProt O15244, sequence (whole entry, looked up): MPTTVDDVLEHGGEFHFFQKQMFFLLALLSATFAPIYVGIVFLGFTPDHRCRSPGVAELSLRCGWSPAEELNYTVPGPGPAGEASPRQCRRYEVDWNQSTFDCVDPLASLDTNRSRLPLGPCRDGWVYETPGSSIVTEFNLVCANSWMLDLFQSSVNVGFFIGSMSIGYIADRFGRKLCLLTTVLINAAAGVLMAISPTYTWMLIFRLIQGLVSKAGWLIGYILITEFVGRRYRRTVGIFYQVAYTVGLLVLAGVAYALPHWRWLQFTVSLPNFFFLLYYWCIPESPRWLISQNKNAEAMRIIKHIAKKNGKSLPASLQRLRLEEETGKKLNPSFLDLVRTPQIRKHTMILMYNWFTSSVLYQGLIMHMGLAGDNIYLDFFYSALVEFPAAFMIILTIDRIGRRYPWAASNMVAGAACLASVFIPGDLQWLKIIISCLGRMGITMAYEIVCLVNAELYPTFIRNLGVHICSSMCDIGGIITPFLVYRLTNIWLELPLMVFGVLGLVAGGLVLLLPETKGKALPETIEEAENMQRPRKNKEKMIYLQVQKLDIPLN
UniProt P05182, sequence (whole entry, looked up): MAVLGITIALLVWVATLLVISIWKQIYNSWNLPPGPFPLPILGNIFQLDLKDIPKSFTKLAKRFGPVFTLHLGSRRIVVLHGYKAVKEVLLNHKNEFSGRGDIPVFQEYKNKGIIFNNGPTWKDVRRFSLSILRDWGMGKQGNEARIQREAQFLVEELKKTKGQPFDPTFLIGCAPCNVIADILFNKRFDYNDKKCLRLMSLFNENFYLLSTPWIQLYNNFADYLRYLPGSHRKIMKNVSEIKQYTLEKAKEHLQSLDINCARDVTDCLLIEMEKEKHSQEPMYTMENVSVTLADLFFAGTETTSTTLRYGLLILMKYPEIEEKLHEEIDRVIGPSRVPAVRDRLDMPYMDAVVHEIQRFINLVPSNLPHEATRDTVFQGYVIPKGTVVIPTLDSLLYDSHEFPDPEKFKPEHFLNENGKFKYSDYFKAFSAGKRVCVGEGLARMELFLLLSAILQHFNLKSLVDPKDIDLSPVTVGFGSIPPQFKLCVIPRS
UniProt Q95LD9, sequence (whole entry, looked up): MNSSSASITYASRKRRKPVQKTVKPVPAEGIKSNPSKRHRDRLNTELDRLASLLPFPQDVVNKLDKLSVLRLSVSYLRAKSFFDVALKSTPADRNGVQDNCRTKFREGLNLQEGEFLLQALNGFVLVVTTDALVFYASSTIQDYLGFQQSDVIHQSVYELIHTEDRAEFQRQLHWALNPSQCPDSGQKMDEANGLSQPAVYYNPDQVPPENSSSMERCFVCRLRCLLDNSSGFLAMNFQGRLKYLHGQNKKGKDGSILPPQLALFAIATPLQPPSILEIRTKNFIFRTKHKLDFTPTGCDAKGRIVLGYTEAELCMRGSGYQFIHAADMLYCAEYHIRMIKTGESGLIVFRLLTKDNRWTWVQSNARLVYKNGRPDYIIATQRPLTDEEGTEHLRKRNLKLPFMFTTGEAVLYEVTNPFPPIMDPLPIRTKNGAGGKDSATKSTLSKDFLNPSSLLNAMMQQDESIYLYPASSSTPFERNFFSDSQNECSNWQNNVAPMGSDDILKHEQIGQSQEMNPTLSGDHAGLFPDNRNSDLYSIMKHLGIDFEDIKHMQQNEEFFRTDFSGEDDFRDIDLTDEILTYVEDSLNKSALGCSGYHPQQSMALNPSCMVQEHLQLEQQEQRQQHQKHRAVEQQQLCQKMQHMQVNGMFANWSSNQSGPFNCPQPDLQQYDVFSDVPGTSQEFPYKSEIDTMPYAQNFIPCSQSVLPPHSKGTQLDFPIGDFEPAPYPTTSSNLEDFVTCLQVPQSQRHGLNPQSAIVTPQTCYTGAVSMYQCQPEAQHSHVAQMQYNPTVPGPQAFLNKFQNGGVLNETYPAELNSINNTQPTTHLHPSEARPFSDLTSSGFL
UniProt P08682, sequence (whole entry, looked up): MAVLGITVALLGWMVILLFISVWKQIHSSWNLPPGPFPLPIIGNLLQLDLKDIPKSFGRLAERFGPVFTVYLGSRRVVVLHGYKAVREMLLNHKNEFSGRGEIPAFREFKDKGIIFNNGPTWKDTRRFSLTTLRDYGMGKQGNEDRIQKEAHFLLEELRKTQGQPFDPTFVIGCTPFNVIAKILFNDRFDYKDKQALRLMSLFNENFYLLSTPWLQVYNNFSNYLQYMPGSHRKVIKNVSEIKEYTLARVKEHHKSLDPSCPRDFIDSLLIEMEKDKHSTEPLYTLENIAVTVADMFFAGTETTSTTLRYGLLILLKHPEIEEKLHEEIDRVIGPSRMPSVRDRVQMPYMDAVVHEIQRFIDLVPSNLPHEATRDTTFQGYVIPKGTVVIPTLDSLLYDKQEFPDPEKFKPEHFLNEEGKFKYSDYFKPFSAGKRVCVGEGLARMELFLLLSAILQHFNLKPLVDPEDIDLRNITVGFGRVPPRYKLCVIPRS
UniProt P14780, sequence (whole entry, looked up): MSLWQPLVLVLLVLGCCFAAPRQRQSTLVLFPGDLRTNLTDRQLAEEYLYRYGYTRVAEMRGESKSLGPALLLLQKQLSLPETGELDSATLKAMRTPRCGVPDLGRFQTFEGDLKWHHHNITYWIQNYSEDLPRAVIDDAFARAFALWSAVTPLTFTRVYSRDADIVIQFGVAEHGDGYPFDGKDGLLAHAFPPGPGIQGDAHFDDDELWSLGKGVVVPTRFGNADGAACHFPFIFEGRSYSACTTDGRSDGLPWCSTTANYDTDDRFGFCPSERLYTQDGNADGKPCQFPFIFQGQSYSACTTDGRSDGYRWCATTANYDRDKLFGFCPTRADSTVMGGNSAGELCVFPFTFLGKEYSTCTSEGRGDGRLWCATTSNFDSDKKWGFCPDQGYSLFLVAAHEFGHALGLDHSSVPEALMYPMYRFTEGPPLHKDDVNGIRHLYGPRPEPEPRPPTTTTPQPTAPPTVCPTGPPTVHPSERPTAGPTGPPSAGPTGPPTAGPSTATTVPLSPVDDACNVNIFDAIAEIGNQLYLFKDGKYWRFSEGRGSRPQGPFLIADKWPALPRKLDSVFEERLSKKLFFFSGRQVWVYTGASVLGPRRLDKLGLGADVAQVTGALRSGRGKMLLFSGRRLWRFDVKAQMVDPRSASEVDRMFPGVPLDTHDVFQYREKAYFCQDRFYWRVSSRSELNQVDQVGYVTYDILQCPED

c1cn[nH]c1 — Ki (CYP2E1 (Oryctolagus cuniculus, UniProt P08682); inhibitor; pH 7.4, 37 °C, cooperative site, with: 4-nitrophenol): 98 µM
N=C(N)c1ccc(-c2ccc(-c3ccco3)o2)cc1F — mutant frequency (Salmonella enterica; TA1535; 20 µM, 48 h, with: sodium azide co-exposure; relative to: sodium azide alone): 16%
CCCCn1ccnc1 — Ki (Cytochrome P450 2E1 (Cyp2e1, Rattus norvegicus, UniProt P05182); enzyme activity, inhibitor; liver microsomes; 10 min, 37 °C, with: chlorzoxazone): 0.63 µM
C[C@H]1CNCCc2ccc(Cl)cc21 — plasma concentration (Sprague-Dawley rat, male, plasma; subcutaneous, 3 mg/kg, 180 min): 17.6 ± 0.77 ng/mL
Brc1ccc(Oc2ccc(Br)cc2Br)c(Br)c1 — fold induction (PXR (polar bear); reporter gene, agonist, luciferase; COS-7; 24 h; relative to: DMSO): 1.5 ± 0.5 fold
CCC#Cc1ccc(-c2ccccc2)cc1 — Kd (CYP2A6; binding, absorbance; pH 7.4): 12 µM
Clc1ccc(C(c2ccc(Cl)cc2)C(Cl)(Cl)Cl)cc1 — fold induction (PXR (polar bear); reporter gene, agonist, luciferase; COS-7; 24 h; relative to: DMSO): 4.1 ± 0.6 fold
C#CCOCc1ccc2ccccc2c1 — Kd (CYP2A6; binding, absorbance; pH 7.4): 21 µM
Clc1cc(Cl)c(-c2c(Cl)cc(Cl)c(Cl)c2Cl)c(Cl)c1 — fold induction (NR1I2; reporter gene, agonist, luciferase; COS-7; 24 h; relative to: DMSO): 3.2 ± 0.5 fold
[123I]c1cncc(OC[C@@H]2CCN2)c1 — tissue/plasma ratio (SPECT; human, hippocampus; intravenous bolus plus infusion, 7.7 mCi; relative to: tissue over plasma): 46.1
N#Cc1ccnc(N2C(=O)CC[C@H]2C(=O)N(c2cncc(F)c2)[C@H](C(=O)NC2CC(F)(F)C2)c2ccccc2Cl)c1 — inhibition (SLC22A2 (Homo sapiens, UniProt O15244); metformin uptake, inhibitor; HEK293 transfected with SLC22A2; up to 65 µM, 2 min, with: [14C]-metformin): < 50%
CN[C@@](C)(C[18F])C(=O)O — tracer uptake (SK-OV-3 tumour model; host not given, kidney; 30 min, tumour-bearing): 11 %ID/g
O=C(O)COc1ccc(C(=O)c2cccs2)c(Cl)c1Cl — inhibition (CYP2C8 human; M2 formation from THC, inhibitor; human liver microsomes; 50 µM, six individual donors, with: THC 2 µM): no effect
C[C@@H]1CC[C@]2(C(=O)O)CC[C@]3(C)C(=CC[C@@H]4[C@@]5(C)CC[C@H](O)[C@@](C)(CO)[C@@H]5CC[C@]43C)[C@@H]2[C@]1(C)O — remaining activity (CYP3A4/5, human; measured: 1'-hydroxymidazolam; human liver microsomes; 20 µM, with: midazolam 1.535 µM): 86.2%
Clc1ccc(Cl)c(-c2cc(Cl)ccc2Cl)c1 — fold induction (PXR (polar bear); reporter gene, agonist, luciferase; COS-7; 24 h; relative to: DMSO): 1 ± 0.2 fold
CC(C)c1ccc2c(c1)CC[C@H]1[C@](C)(CN)CCC[C@]21C — IC50 (SK-MEL-24; cell growth or viability, MTS; 48 h): 1.66 µM
Clc1ccc(-c2cc(Cl)c(Cl)c(Cl)c2)cc1 — Ki (Aryl hydrocarbon receptor (AHR, Delphinapterus leucas, UniProt Q95LD9); binding, competitor; in vitro expressed receptor, with: [3H]TCDD): 0.019 µM
CNC(C)Cc1ccc2c(c1)OCO2 (racemic) — mood rating (visual analog scale, measured: Lonely; human; oral, 0.75 mg/kg, mean over session, unit not given; relative to: pre-dose baseline): 4.8
CSCC[C@@H]1NC(=O)[C@H](CC(=O)O)NC(=O)CNC(=O)[C@H](CCCNC(=N)N)NC(=O)[C@H](C)NC(=O)[C@H](CCC(=O)O)NC(=O)[C@H](CCCNC(=N)N)NC(=O)[C@@H]2CSSC[C@@H]3NC(=O)[C@H](CO)NC(=O)[C@H]([C@@H](C)O)NC(=O)[C@@H]4CCCN4C(=O)[C@H](C)NC(=O)[C@H](Cc4c[nH]c5ccccc45)NC(=O)[C@H](CC(=O)O)NC(=O)CNC(=O)[C@H](CCCNC(=N)N)NC(=O)CNC(=O)[C@H](CCC(N)=O)NC(=O)[C@@H]4CCCN4C(=O)[C@@H](NC(=O)CNC(=O)C(C)F)CSSC[C@H](NC(=O)CNC(=O)[C@H](C)NC(=O)[C@H](CC(C)C)NC(=O)[C@H](CSSC[C@@H](C(=O)NCC(N)=O)NC(=O)[C@H]([C@@H](C)O)NC(=O)[C@H](CCCNC(=N)N)NC(=O)[C@@H]4CCCN4C1=O)NC(=O)[C@H](CC(=O)O)NC(=O)[C@H](CO)NC(=O)[C@H](CC(=O)O)NC(=O)[C@H](CCC(N)=O)NC(=O)[C@H](CO)NC3=O)C(=O)N[C@@H](C(C)C)C(=O)N2 (stereo partly drawn) [fluorine-18 labelled] — tissue uptake (nude mouse, U-87 MG xenograft, bone; intravenous, 2.5 h, with: cyclo(RGDyK) co-injected): 0.37 ± 0.25 %ID/g
C=C(C)[C@@H]1CCC(C)=C[C@H]1c1c(O)cc(CCCCC)cc1O — inhibition (CYP2A6; nicotine demethylation to nornicotine, inhibitor; microsomes of overexpressing HEK293 cells; 1 µM, 30 min, pH 7.4, with: nicotine 50 µM): 60%
N=C(N)c1ccc(-c2ccc(-c3cccs3)o2)c(F)c1 — mutant frequency (Salmonella enterica; TA1535; 20 µM, 48 h, with: sodium azide after pre-exposure; relative to: sodium azide alone): 24%
Brc1ccc(Oc2ccc(Br)cc2Br)cc1 — fold induction (NR1I2; reporter gene, agonist, luciferase; COS-7; 24 h; relative to: DMSO): 3.1 ± 0.5 fold
CC(C)C[C@H](NC(=O)CNC(=O)[C@H](CC(C)C)NC(=O)[C@@H]1CCCN1C(=O)Cc1ccc2ccc3cccc4ccc1c2c34)C(=O)N[C@@H](CCCNC(=N)N)C(=O)N[C@@H](CO)C(=O)N[C@@H](CCCCN)C(=O)O — residual substrate (MMP9 (Homo sapiens, UniProt P14780); protease stability, substrate, HPLC; 500 µM, 72 h, pH 7.5, 37 °C, with: MMP9 10 U): not detected
CCN(CC)C(=S)S — MT formation rate (CYP isoforms, human; inhibitor; human liver microsomes; Ki and twice Ki, 1.5 h, 37 °C, with: OMT 50 µM; relative to: no inhibitor): inhibited

A few entries again:
C#CCOCc1ccc2ccccc2c1 — Kd (CYP2A6; binding, absorbance; pH 7.4): 21 µM
CCC#Cc1ccc(-c2ccccc2)cc1 — Kd (CYP2A6; binding, absorbance; pH 7.4): 12 µM
